Published values gathered from unrelated publications.
Compare with care: the assays were run in different laboratories. Numbers after ± are the reported error.
Cell line: MCF7

| Structure (SMILES) | test | setting | scale | quantity | result |
| --- | --- | --- | --- | --- | --- |
| CC[C@H]([C@@H](C)c1ccc(O)cc1)[C@@H](CC)c1ccc(O)cc1 | cell growth or viability, ATP luminescence | 5 days |  | EC50 | 3.4 nM |
| CCC(=CCc1c(O)cc2c(c1O)C(=O)CC(c1ccc(OC)c(O)c1)O2)CC (centres unmarked) | cytotoxicity, MTT | 2.51 µM, 48 h |  | growth inhibition | 4.26% |
| CC(C)C[C@@H](NC(=O)[C@H](C)NC(=O)CNC(=O)[C@@H](NC=O)C(C)C)C(=O)N[C@@H](C)C(=O)N[C@@H](C(=O)N[C@H](C(=O)N[C@@H](C(=O)N[C@@H](Cc1c[nH]c2ccccc12)C(=O)N[C@H](CC(C)C)C(=O)N[C@@H](Cc1c[nH]c2ccccc12)C(=O)N[C@H](CC(C)C)C(=O)N[C@@H](Cc1c[nH]c2ccccc12)C(=O)N[C@H](CC(C)C)C(=O)N[C@@H](Cc1c[nH]c2ccccc12)C(=O)NCCO)C(C)C)C(C)C)C(C)C | flow cytometry | 100 nM, 48 h |  | cells in G2/M phase | 26.1 ± 1.64% |
| C[C@@H]1CC[C@@H]([C@@](O)(COCc2ccccc2)Cn2cnc3ccccc32)[C@H](OCc2ccccc2)C1 | cell growth or viability, MTT | 30 µM, 72 h |  | inhibition | 86.4% |
| COC(=O)c1cc(NC2=NC(=O)C(=Cc3ccc(N(C)C)cc3)S2)ccc1OC(C)=O | GC-MS, item: Adenosine | 1 µM | baseline: DMSO | metabolite level | -1.02 fold change |
| CCC(=CCc1c(O)cc2c(c1O)C(=O)CC(c1cccc(O)c1)O2)CC (centres unmarked) | cytotoxicity, MTT | 54.29 µM, 48 h |  | growth inhibition | 59.9% |
| C[C@@H]1CC[C@@H]([C@@](C)(O)Cn2ccnc2)[C@H](OCc2ccccc2)C1 | cell growth or viability, MTT | 30 µM, 72 h |  | inhibition | 56% |
| CC(=NN=c1sc(C(=O)c2ccccc2)nn1-c1ccccc1)c1ccc(S(=O)(=O)N2CCC(C)CC2)cc1 | flow cytometry | 4.29 µM (IC50), 72 h |  | cells in G0/G1 phase | 35.3% |
| CCC(=CCc1c(O)cc2c(c1O)C(=O)CC(c1ccccc1O)O2)CC (centres unmarked) | cytotoxicity, MTT | 13.57 µM, 48 h |  | growth inhibition | 0.48% |
| COc1ccc(COC[C@](O)(CNCc2ccccc2)[C@@H]2CC[C@@H](C)C[C@H]2OCc2ccc(OC)cc2)cc1 | cell growth or viability, MTT | 30 µM, 72 h |  | inhibition | 99% |
| CC(=O)[O][Pd][c]1ccccc1-n1nc(C)cc1C.CC(=O)[O][Pd][c]1ccccc1-n1nc(C)cc1C | FLICA flow cytometry | 25 µM, 24 h |  | caspase-3/7 active cells | 57.6 ± 3.64% |
| CSC(=NN=C(C)c1ccc(S(=O)(=O)N2CCC(C)CC2)cc1)N(C)C | annexin V/PI | concentration not given, 72 h, at IC50 |  | necrotic cells | 1.54% |
| Cc1c(COc2cc(OCc3cccc(C#N)c3)c(CNC(CO)(CO)CO)cc2Cl)cccc1-c1cccc(OCCCCCC(=O)NO)c1 | annexin V-FITC/PI flow cytometry | 20 µM, 48 h, early plus late apoptosis |  | apoptotic cells | 74.6% |
| Oc1ccnc(-c2cc(O)ccn2)c1.[Cl-].[Cl-].[Ru+2].c1ccc(-c2ccnc3c2ccc2c(-c4ccccc4)ccnc23)cc1.c1ccc(-c2ccnc3c2ccc2c(-c4ccccc4)ccnc23)cc1 | CCK-8 viability | white light 2 h |  | EC50 | 500 nM |
| CC(=O)[O][Pd][c]1cc(C)ccc1N1N=C(C)C(C)(C)C1=O.CC(=O)[O][Pd][c]1cc(C)ccc1N1N=C(C)C(C)(C)C1=O | FLICA flow cytometry | 25 µM, 24 h |  | caspase-8 active cells | 39.4 ± 1.61% |
| CSC(=S)N/N=C(\C)c1ccc(S(=O)(=O)N2CCC(C)CC2)cc1 | flow cytometry | 4.29 µM (IC50), 72 h |  | cells in pre-G1 phase | 15.5% |
| C=CCc1c(O)cc2c(c1O)C(=O)CC(c1ccc(O)cc1)O2 (centres unmarked) | cytotoxicity, MTT | 1.601 µM, 48 h |  | growth inhibition | -3.81% |

A few entries again:
| Structure (SMILES) | test | setting | scale | quantity | result |
| --- | --- | --- | --- | --- | --- |
| Cc1c(COc2cc(OCc3cccc(C#N)c3)c(CNC(CO)(CO)CO)cc2Cl)cccc1-c1cccc(OCCCCCC(=O)NO)c1 | annexin V-FITC/PI flow cytometry | 20 µM, 48 h, early plus late apoptosis |  | apoptotic cells | 74.6% |
